{"data": "Results collected from several papers", "target": "Cytochrome P450 2C19 (CYP2C19, Homo sapiens, UniProt P33261)", "note": "Protocols differ between the studies behind these lines. Numbers after ± are the reported error.", "sequence of UniProt P33261 (whole entry, looked up)": "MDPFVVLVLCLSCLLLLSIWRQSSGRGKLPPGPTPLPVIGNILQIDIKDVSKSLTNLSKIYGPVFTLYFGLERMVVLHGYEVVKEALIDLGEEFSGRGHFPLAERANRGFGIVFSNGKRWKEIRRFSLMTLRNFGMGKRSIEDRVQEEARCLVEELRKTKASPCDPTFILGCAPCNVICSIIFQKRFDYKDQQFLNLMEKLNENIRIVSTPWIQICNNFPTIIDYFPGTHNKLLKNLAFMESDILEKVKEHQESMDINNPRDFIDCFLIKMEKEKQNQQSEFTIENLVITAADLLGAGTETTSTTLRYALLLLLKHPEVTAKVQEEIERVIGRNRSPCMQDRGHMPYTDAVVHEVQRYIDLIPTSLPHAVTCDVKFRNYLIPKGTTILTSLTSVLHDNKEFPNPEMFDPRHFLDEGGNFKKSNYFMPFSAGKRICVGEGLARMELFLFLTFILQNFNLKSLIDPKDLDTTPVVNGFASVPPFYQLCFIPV"}
{"SMILES": "CC1=N[C@]2(C(=O)CO)[C@@H](C[C@H]3[C@@H]4C[C@@H](O)C5=CC(=O)C=C[C@]5(C)[C@H]4[C@@H](O)C[C@@]32C)O1", "test": "enzyme activity, inhibitor", "test system": "human, liver microsomes", "conditions": "with preincubation", "measurement": "IC50", "result": "48 µM"}
{"SMILES": "COc1cc(CCc2cnc3ccn(S(=O)(=O)c4c[nH]cn4)c3n2)cc(OC)c1", "test": "enzyme activity, inhibitor", "test system": "human, liver microsomes", "conditions": "10 µM, 20 min, pH 7.4", "measurement": "inhibition", "result": "99%"}
{"SMILES": "COC(=O)/C=C/C(=O)O", "test system": "human liver microsomes", "conditions": "up to 750 µM, 10 min, added: S-mephenytoin", "measurement": "maximum time-dependent inhibition", "result": "28%"}
{"SMILES": "CC(C)=CCc1cc(-c2coc3cc(O)ccc3c2=O)ccc1O", "test": "substrate", "test system": "recombinant CYP2C19", "conditions": "pH 7.4", "measurement": "CLint", "result": "63.4 µL/min/mg"}
{"SMILES": "O=C1Nc2ccc(Cl)cc2[C@@](C#CC2CC2)(C(F)(F)F)O1", "test": "enzyme activity, inhibitor", "test system": "human, liver microsomes", "conditions": "50 µM, pH 7.4", "measurement": "inhibition", "result": "10%"}
{"SMILES": "OC(Cn1cncn1)(Cn1cncn1)c1ccc(F)cc1F", "test": "cotinine to COX formation, inhibitor", "test system": "microsomes of overexpressing HEK293 cells", "conditions": "10 µM, 30 min, pH 7.4, added: cotinine 1 mM", "measurement": "inhibition", "result": "55%"}
{"SMILES": "Cc1noc(C)c1Cn1cc(N2C(=O)CN(Cc3cccc(O)c3)C2=O)cn1", "test": "enzyme activity, inhibitor, fluorescence", "test system": "Sf9", "conditions": "10 µM", "measurement": "inhibition", "result": "26%"}
{"SMILES": "COc1ccc2[nH]c([S+]([O-])Cc3ncc(C)c(OC)c3C)nc2c1 (stereo not drawn)", "test": "substrate", "test system": "human, both sexes, plasma", "conditions": "oral, 20 mg, cocktail probe, control day", "measurement": "AUC(0-inf)", "result": "1.2 ± 0.6 µM·h"}
{"SMILES": "COc1cc(OC)c(Cl)c(CCc2cnc3ccn(S(=O)(=O)c4c[nH]cn4)c3n2)c1Cl", "test": "enzyme activity, inhibitor", "test system": "human, liver microsomes", "conditions": "10 µM, 20 min, pH 7.4", "measurement": "inhibition", "result": "99%"}
{"SMILES": "Cc1noc(C)c1Cn1cc(N2C(=O)N(Cc3cccc(O)c3)C(C)(C)C2=O)cn1", "test": "enzyme activity, inhibitor, fluorescence", "test system": "Sf9", "conditions": "10 µM", "measurement": "inhibition", "result": "11%"}
{"SMILES": "O=c1[nH]c(=O)c(Cc2cccc(C(F)(F)F)c2)c([C@H]2CC[C@H](c3ccccc3)CC2)[nH]1", "test system": "human, plasma", "conditions": "oral, 600 mg, day 10, geometric mean, added: fluvoxamine", "measurement": "AUC(0-last)", "result": "11700 ng·h/mL"}
{"SMILES": "CN1Cc2c(Cl)cc(Cl)cc2[C@H](c2cccc(S(=O)(=O)NCCOCCOCCNC(=O)NCCCCNC(=O)NCCOCCOCCNS(=O)(=O)c3cccc([C@@H]4CN(C)Cc5c(Cl)cc(Cl)cc54)c3)c2)C1", "test": "enzyme activity, inhibitor", "test system": "human, liver microsomes", "conditions": "30 µM, 5 min", "measurement": "inhibition", "result": "32.9%"}
{"note": "A few entries again:"}
{"SMILES": "COc1cc(OC)c(Cl)c(CCc2cnc3ccn(S(=O)(=O)c4c[nH]cn4)c3n2)c1Cl", "test": "enzyme activity, inhibitor", "test system": "human, liver microsomes", "conditions": "10 µM, 20 min, pH 7.4", "measurement": "inhibition", "result": "99%"}
{"SMILES": "Cc1noc(C)c1Cn1cc(N2C(=O)N(Cc3cccc(O)c3)C(C)(C)C2=O)cn1", "test": "enzyme activity, inhibitor, fluorescence", "test system": "Sf9", "conditions": "10 µM", "measurement": "inhibition", "result": "11%"}
